Results collected from several papers.
± gives the spread as reported. ≈ marks a conversion by molar mass, not a printed value.

`CN(C)c1cc(CNCc2ccncc2)c(O)c2c1C[C@H]1C[C@H]3[C@H](N(C)C)C(O)=C(C(N)=O)C(=O)[C@@]3(O)C(O)=C1C2=O` has an MIC of 2 µg/mL (≈ 3.46 µM) (Streptococcus pneumoniae; ATCC 700905, Tet M ribosome protection).
The selectivity index of `COc1ccc(-n2nc3c(=O)[nH]nc(C)c3c2C)cc1` is reported as 2.9 (Zika virus; Vero, MR766; baseline: CC50 over EC50).
The IC50 of `COc1ccccc1NC(=O)OC1C(C)C(OC)C=COC2(C)Oc3c(C)c(O)c4c(c3C2=O)C2=NC3(CCN(CC(C)C)CC3)NC2=C(NC(=O)C(C)=CC=CC(C)C(O)C(C)C(O)C1C)C4=O` (stereo not drawn) is reported as 0.018 µM (Mycobacteroides abscessus; ATCC 19977; CAMHB).
For `CC[C@H](C)[C@H](NC(=O)[C@H](CCCCN)NC(=O)[C@H](CC(N)=O)NC(=O)[C@H](Cc1c[nH]c2ccccc12)NC(=O)[C@H](Cc1ccccc1)NC(=O)[C@H](CCCCN)NC(=O)[C@H](CCCNC(=N)N)NC(=O)[C@H](CC(C)C)NC(=O)[C@H](Cc1c[nH]c2ccccc12)NC(=O)[C@H](CCCCN)NC(=O)[C@H](CCCNC(=N)N)NC(=O)[C@H](CC(C)C)NC(=O)CNC(C)=O)C(=O)N[C@@H](CCCCN)C(=O)N[C@@H](CCCNC(=N)N)C(N)=O`, “geometric mean MIC” read 3.94 µM (all bacteria tested).
Under reporter gene, `COC(=O)C1=C(C)N(Cc2ccc(Br)cc2)C(=S)CC1c1ccc(OC)cc1` (stereo not drawn) is recorded as “no effect” (Saccharomyces cerevisiae; refers to: Rlm1-lacZ; up to 20 µM, with: calcofluor white).
For `CCCCCc1ccc2c(c1O)C(c1ccc(OC)c(OC)c1)OC2=O` (stereo not drawn), the IC50 was 13 µM (Naegleria fowleri; parasite growth, resazurin; 48 h).
The MIC increase of `CCC1(C)CCN(Cc2cc(N(C)C)c3c(c2O)C(=O)C2=C(O)[C@]4(O)C(=O)C(C(N)=O)=C(O)[C@@H](N(C)C)[C@@H]4C[C@@H]2C3)CC1` is reported as no less than 2 dilutions (Streptococcus pneumoniae; 157E; with: mouse serum; baseline: no serum).
`CS(=O)(=O)c1ccc(-c2cn([C@@H]3O[C@H](CO)[C@@H](O)[C@H]3O)c3ncnc(N)c23)cc1` has an EC50 of 74.2 ± 0.8 µM (Trichomonas vaginalis; resorufin; G3, metronidazole-sensitive; 24 h + 2 h, 2% O2).
`CC[C@@H](C)[C@@H](NC(=O)[C@@H](C)N)C(=O)N[C@H](CCCCN)C(=O)N[C@@H](C(=O)N[C@H](CCCNC(=N)N)C(=O)N[C@H](CCCCN)C(=O)N[C@H](CC(C)C)C(=O)N[C@H](Cc1ccccc1)C(=O)N[C@H](CCCCN)C(=O)N[C@H](CCCCN)C(=O)N[C@H](CC(C)C)C(=O)N[C@H](CC(C)C)C(=O)N[C@H](CCCNC(=N)N)C(N)=O)[C@H](C)CC` — result for “MIC of antibiotic”: 3.12 µg/mL (Escherichia coli; broth microdilution checkerboard, refers to: ampicillin; ATCC 25922, LB medium; concentration not given).
`CC1(C)NCCC[C@]2(C)[C@H]3C=CC4=C5C[C@@](C)(CO)CC[C@]5(C)CC[C@@]4(C)[C@]3(C)CC[C@@H]12` has an EC90 of greater than 30 µM (Human cytomegalovirus; cytopathic effect; HFF, AD169).
With `COc1cc(/C=C/c2cc(/C=C/c3ccc(O)c(OC)c3)n(C(=O)c3ccco3)n2)ccc1O` the inhibition was 69.8% (Spodoptera frugiperda; cell growth or viability, MTT; Sf9; 100 µM, 72 h).
`Cc1ccc2nc(-c3ccccc3)c(CN(C)C)n2c1` — result for activity: “inactive” (Trypanosoma cruzi; parasite growth; Tulahuen beta-galactosidase; concentration not given).
For `C[C@H]1[C@H](C)CC[C@]2(CO)CC[C@]3(C)C(=CC[C@@H]4[C@@]5(C)CCCNC(C)(C)[C@@H]5CC[C@]43C)[C@H]12`, the EC90 was greater than 6 µM (Human cytomegalovirus; cytopathic effect; HFF, AD169).
With `CN(C)c1cc(CNCC(N)=O)c(O)c2c1C[C@H]1C[C@H]3[C@H](N(C)C)C(O)=C(C(N)=O)C(=O)[C@@]3(O)C(O)=C1C2=O` the MIC was 2 µg/mL (≈ 3.68 µM) (Streptococcus pneumoniae; microbial growth, broth dilution).
With `CCn1ccc([C@H](C)[C@](O)(Cn2cnnn2)c2ccc(F)cc2F)n1` the MIC was 1 µg/mL (≈ 2.87 µM) (Candida tropicalis; growth, broth microdilution; 2718; 24 h, 30 °C, ≥50% inhibition).

Excerpt of the above:
`CC[C@@H](C)[C@@H](NC(=O)[C@@H](C)N)C(=O)N[C@H](CCCCN)C(=O)N[C@@H](C(=O)N[C@H](CCCNC(=N)N)C(=O)N[C@H](CCCCN)C(=O)N[C@H](CC(C)C)C(=O)N[C@H](Cc1ccccc1)C(=O)N[C@H](CCCCN)C(=O)N[C@H](CCCCN)C(=O)N[C@H](CC(C)C)C(=O)N[C@H](CC(C)C)C(=O)N[C@H](CCCNC(=N)N)C(N)=O)[C@H](C)CC` — result for “MIC of antibiotic”: 3.12 µg/mL (Escherichia coli; broth microdilution checkerboard, refers to: ampicillin; ATCC 25922, LB medium; concentration not given).
